Experimental data collected from several papers.
Numbers after ± are the reported error.
Chain of UniProt Q9HAZ1 (whole entry, looked up): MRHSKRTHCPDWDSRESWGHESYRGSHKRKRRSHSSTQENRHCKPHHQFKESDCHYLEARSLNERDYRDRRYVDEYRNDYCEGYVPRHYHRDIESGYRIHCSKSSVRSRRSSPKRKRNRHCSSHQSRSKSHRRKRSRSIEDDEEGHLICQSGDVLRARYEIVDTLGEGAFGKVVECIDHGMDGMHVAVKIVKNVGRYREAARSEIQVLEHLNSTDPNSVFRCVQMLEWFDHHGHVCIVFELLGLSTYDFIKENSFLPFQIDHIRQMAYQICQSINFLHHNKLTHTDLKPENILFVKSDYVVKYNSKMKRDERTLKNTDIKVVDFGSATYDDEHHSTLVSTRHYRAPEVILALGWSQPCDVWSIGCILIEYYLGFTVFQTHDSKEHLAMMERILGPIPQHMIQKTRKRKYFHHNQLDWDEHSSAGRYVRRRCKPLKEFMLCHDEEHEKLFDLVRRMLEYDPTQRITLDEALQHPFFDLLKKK

SMILES | tested on | test | system | setting | scale | endpoint | value
COc1ccccc1-c1n[nH]c2nc(NC3CCN(C(=O)Cc4ccc(F)cc4F)CC3)ncc12 | – | bead binding, competition bead pull-down, item: LINJ.30.3000 | Leishmania donovani extract | 10 µM | reference: vehicle | relative abundance | 1.03
O=C(c1cc(Cc2n[nH]c(=O)c3ccccc23)ccc1F)N1CC(CNC2CC2)C1 | – | general toxicity | Wistar rat | oral, multiple doses, once daily | – | NOAEL | 30 mg/kg/day
C[C@H](NCc1ccc(-c2ccc(C(F)(F)F)cc2)cc1)C(N)=O | – | general toxicity | Sprague-Dawley rat | oral, single dose | – | NOAEL | > 1000 mg/kg
CC(CCC(=O)NCC(=O)O)C1CCC2C3CCC4CC(OC5OC(C(=O)O)C(O)C(O)C5O)CCC4(C)C3CC(O)C12C (stereo not shown) | – | item: glucuronide to parent ratio | men, plasma | dose not given | reference: T/C over T/T | ratio of metabolic ratios | 1.74
Cc1ccc(OC[C@@H]2CCCN2C)cc1C(=O)N[C@H](C)c1cc(-c2cnn(C)c2)nc2ccccc12 | Vero E6 | – | – | 125 µM | – | viability | 8.1%
COc1ccccc1-c1n[nH]c2nc(N[C@H]3CC[C@H](NS(=O)(=O)CC(C)C)CC3)ncc12 | – | bead binding, competition bead pull-down, item: LMJF.34.0490 | Leishmania donovani extract | 10 µM | reference: vehicle | relative abundance | 0.97
CC[C@H](C)[C@H](NC(=O)[C@H](CCCCN)NC(=O)CNC(=O)[C@H](CC(C)C)NC(=O)[C@H](Cc1ccccc1)NC(=O)[C@H](CCCCN)NC(=O)[C@H](CO)NC(=O)[C@H](Cc1ccccc1)NC(=O)[C@H](Cc1c[nH]c2ccccc12)NC(=O)[C@H](CCC(N)=O)NC(=O)[C@@H](NC(=O)[C@H](Cc1ccccc1)NC(=O)CCCCCNC(=O)CN1CCN(CC(=O)O)CCN(CC(=O)O)CCN(CC(=O)O)CC1)C(C)C)C(=O)N[C@@H](CCC(=O)O)C(=O)N1CCC[C@H]1C(=O)N[C@@H](CC(=O)O)C(=O)N[C@H](C(=O)N[C@@H](CO)C(=O)N[C@@H](CCC(N)=O)C(=O)N[C@H](C(=O)N[C@@H](CCC(N)=O)C(=O)N[C@@H](CC(=O)O)C(=O)N1CCC[C@H]1C(=O)N[C@@H](CC(N)=O)C(=O)N[C@@H](CC(=O)O)C(=O)N[C@@H](CCC(N)=O)C(=O)N[C@@H](Cc1ccc(O)cc1)C(=O)N[C@@H](CCC(=O)O)C(=O)N1CCC[C@H]1C(=O)N[C@@H](Cc1ccccc1)C(=O)O)C(C)C)C(C)C [copper-64 labelled] | – | dynamic PET | mouse, CT26 tumour, checkpoint inhibitor-treated, tumour | intravenous, 100 µCi/mouse, 50 s | – | SUVmean | 0.24 SUV
O=C1NC2(CC2)COc2ncc(F)cc2[C@H]2COCCN2c2ccn3ncc1c3n2 | – | – | Sprague-Dawley rat, male, serum | oral, 2.5 mg/kg/day, end of recovery, 4-week subacute toxicity | – | serum sodium | 145 ± 1 mmol/L
CCN(CC)CCOc1ccc(-c2nnn(Cc3ccc(OC)cc3)c2N)cc1 | – | – | mouse plasma | 120 min | – | remaining compound | 102%
CC(C(=O)O)n1nc(Cn2cc3cc(OCC[18F])c(Cl)cc3n2)c2ccccc2c1=O (racemic) | – | HPLC | nonhuman primate, plasma | 5 min post-injection | reference: plasma radioactivity | lipophilic radiometabolite | 0%
COc1cnc2cccc(N3CCc4c(cc(Cn5ccnc5)cc4-c4cn(C)nc4C(F)(F)F)C3=O)c2c1 | – | – | CD-1 mice | intraperitoneal, 150 mg/kg once daily, day 3 | – | body weight | 29.7 ± 2 g
CN1Cc2cc(Cl)ccc2-n2c(nnc2C2CCN(c3cccc([18F])n3)CC2)C1 | – | PET two-tissue compartment model | rhesus monkey, cerebellum | intravenous, dose not given, 90 min scan, baseline scan | – | total volume of distribution | 0.94 ± 0.36 mL/cm3
Cc1nc2cccc(OCC(C)(C)C(=O)NC(C)C)c2c(N)c1C(=O)[O-].[Na+] | Salmonella typhimurium | – | TA100 | 0.32 mg per plate, without S9, preincubation | – | revertant colonies per plate | 133 ± 9
CC[C@H](C)[C@H](NC(=O)[C@H](CO)NC(=O)[C@H](Cc1ccc(O)cc1)NC(=O)[C@H](Cc1ccc(O)cc1)NC(=O)[C@H](CC(N)=O)NC(=O)CNC(=O)[C@H](CO)NC(=O)[C@H](Cc1ccc(O)cc1)NC(=O)[C@H](CO)NC(=O)[C@H](CO)NC(=O)[C@H](CC(N)=O)NC(=O)COCCOCCNC(=O)CN1CCN(CC(=O)O)CCN(CC(=O)O)CCN(CC(=O)O)CC1)C(=O)N[C@@H](CC(C)C)C(N)=O [copper-64 labelled] | – | dynamic PET | mouse, tamoxifen-induced PDAC, blood | intravenous, 0.1 µg/mouse, 9.5 min | – | tumour uptake | 6.67 %ID/mL
CC(=O)N[C@@H](CCCNC(=N)N)C(=O)N[C@@H](CCCCN)C(=O)N[C@@H](CCC(=O)N=S(c1ccc(Cl)cc1)c1ccccc1O)C(=O)N[C@H](C(=O)N[C@@H](Cc1ccc(O)cc1)C(N)=O)C(C)C (stereo partly shown) | – | HPLC | 95% FBS in PBS | 0.5 mM, 1 h, pH 7.4, 37 °C | – | hydrolysis | 1%
CS(C)(=O)=Nc1ccc(-c2ccc(-c3nc4cc(O[C@@H]5CO[C@H]6[C@@H]5OC[C@H]6O)[nH]c4cc3F)cc2)cc1 | CLK4 (Homo sapiens, UniProt Q9HAZ1) | enzyme activity, inhibitor | – | 10 µM | – | inhibition | 6%
CCCC[C@H]1C(=O)N(C)[C@@H](CCCC)C(=O)N[C@@H](CCCNC(=O)CN2CCN(CC(=O)O)CCN(CC(=O)O)CCN(CC(=O)O)CC2)C(=O)N[C@H](C(=O)NCC(N)=O)CSCC(=O)N[C@@H](Cc2ccc(O)cc2)C(=O)N(C)[C@@H](C)C(=O)N[C@@H](CC(N)=O)C(=O)N2CCC[C@H]2C(=O)N[C@@H](Cc2c[nH]cn2)C(=O)N[C@@H](CC(C)C)C(=O)N(C)CC(=O)N[C@@H](Cc2c[nH]c3ccccc23)C(=O)N[C@@H](CO)C(=O)N[C@@H](Cc2c[nH]c3ccccc23)C(=O)N1C [gallium-68 labelled] | – | – | NOD/SCID mice with CHO-hPD-L1 xenograft, lung | 10 min post injection | – | tissue uptake | 9 ± 1.97 %ID/g
CSCC[C@H](NC(=O)[C@@H](NC(=O)[C@H](CC(C)C)NC(=O)[C@@H](NC(=O)[C@H](Cc1c[nH]cn1)NC(=O)CCCCCNC(=O)[C@H](CCCNC(=N)N)NC(=O)[C@H](CCCNC(=N)N)NC(=O)[C@H](CCCNC(=N)N)NC(=O)[C@H](CCC(N)=O)NC(=O)[C@H](CCCNC(=N)N)NC(=O)[C@H](CCCNC(=N)N)NC(=O)[C@H](CCCCN)NC(=O)[C@H](CCCCN)NC(=O)[C@H](CCCNC(=N)N)NC(=O)CNC(=O)[C@@H](N)Cc1ccc(O)cc1)C(C)C)C(C)C)C(=O)N[C@@H](CS)C(=O)N[C@@H](C)C(=O)N[C@H](C(N)=O)[C@@H](C)O | – | – | C57BL/6J mice | Alzet osmotic pump, 3 mg/kg, 8 weeks | – | GGT | 0 U/L
CSCC[C@H](N)C(=O)N[C@@H](C)C(=O)N[C@@H](CCCNC(=N)N)C(=O)N[C@@H](CCCNC(=N)N)C(=O)N[C@@H](CC(=O)O)C(=O)N[C@@H](CCCCN)C(=O)N[C@H](C(=O)N[C@@H](CC(=O)O)C(=O)N[C@@H](Cc1ccccc1)C(=O)N[C@@H](C)C(=O)N[C@@H](CCCNC(=N)N)C(=O)N[C@@H](CCCNC(=N)N)C(=O)N[C@@H](CCCNC(=N)N)C(=O)N[C@@H](CCCNC(=N)N)C(=O)NCCCCCC(=O)NCCCCC(NC(=O)CCCCCNC(=O)[C@H](CCCNC(=N)N)NC(=O)[C@H](CCCNC(=N)N)NC(=O)[C@H](CCCNC(=N)N)NC(=O)[C@H](CCCNC(=N)N)NC(=O)[C@H](C)NC(=O)[C@H](Cc1ccccc1)NC(=O)[C@H](CC(=O)O)NC(=O)[C@@H](NC(=O)[C@H](CCCCN)NC(=O)[C@H](CC(=O)O)NC(=O)[C@H](CCCNC(=N)N)NC(=O)[C@H](CCCNC(=N)N)NC(=O)[C@H](C)NC(=O)[C@@H](N)CCSC)[C@@H](C)O)C(=O)NCCCCC(NC(=O)C(CCCCNC(=O)CCCCCNC(=O)[C@H](CCCNC(=N)N)NC(=O)[C@H](CCCNC(=N)N)NC(=O)[C@H](CCCNC(=N)N)NC(=O)[C@H](CCCNC(=N)N)NC(=O)[C@H](C)NC(=O)[C@H](Cc1ccccc1)NC(=O)[C@H](CC(=O)O)NC(=O)[C@@H](NC(=O)[C@H](CCCCN)NC(=O)[C@H](CC(=O)O)NC(=O)[C@H](CCCNC(=N)N)NC(=O)[C@H](CCCNC(=N)N)NC(=O)[C@H](C)NC(=O)[C@@H](N)CCSC)[C@@H](C)O)NC(=O)CCCCCNC(=O)[C@H](CCCNC(=N)N)NC(=O)[C@H](CCCNC(=N)N)NC(=O)[C@H](CCCNC(=N)N)NC(=O)[C@H](CCCNC(=N)N)NC(=O)[C@H](C)NC(=O)[C@H](Cc1ccccc1)NC(=O)[C@H](CC(=O)O)NC(=O)[C@@H](NC(=O)[C@H](CCCCN)NC(=O)[C@H](CC(=O)O)NC(=O)[C@H](CCCNC(=N)N)NC(=O)[C@H](CCCNC(=N)N)NC(=O)[C@H](C)NC(=O)[C@@H](N)CCSC)[C@@H](C)O)C(N)=O)[C@@H](C)O (stereo partly shown) | – | – | C57BL/6 mouse female, brain | dose not given, 6 h | reference: total | mean tissue distribution | 0.28%

For quick reference, copied from above:
SMILES | tested on | test | system | setting | scale | endpoint | value
CCN(CC)CCOc1ccc(-c2nnn(Cc3ccc(OC)cc3)c2N)cc1 | – | – | mouse plasma | 120 min | – | remaining compound | 102%
CC(C(=O)O)n1nc(Cn2cc3cc(OCC[18F])c(Cl)cc3n2)c2ccccc2c1=O (racemic) | – | HPLC | nonhuman primate, plasma | 5 min post-injection | reference: plasma radioactivity | lipophilic radiometabolite | 0%
